Measurements from different studies.
Each numbered part is a random draw from the data of one study; scales do not carry over between parts. Several values in a cell are separate wells, animals, samples, runs or records. In brackets after ≈: the same amount, converted by molar mass.
UniProt Q99640, sequence (whole entry, looked up): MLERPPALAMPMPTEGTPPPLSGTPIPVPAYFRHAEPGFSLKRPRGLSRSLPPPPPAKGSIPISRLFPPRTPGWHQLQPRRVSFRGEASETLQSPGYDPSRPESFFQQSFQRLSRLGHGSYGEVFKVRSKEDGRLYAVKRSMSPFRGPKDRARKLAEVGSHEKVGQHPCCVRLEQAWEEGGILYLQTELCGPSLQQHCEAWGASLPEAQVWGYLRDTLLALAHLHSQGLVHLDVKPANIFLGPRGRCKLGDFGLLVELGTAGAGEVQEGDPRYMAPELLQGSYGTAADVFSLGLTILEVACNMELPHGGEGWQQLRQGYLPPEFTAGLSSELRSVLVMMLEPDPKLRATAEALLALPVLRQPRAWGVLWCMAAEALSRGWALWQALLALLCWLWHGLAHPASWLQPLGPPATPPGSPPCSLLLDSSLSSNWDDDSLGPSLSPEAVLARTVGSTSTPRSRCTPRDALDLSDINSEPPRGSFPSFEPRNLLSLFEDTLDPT

Series 1 — action: competitor; method: radioligand binding
SMILES: N=C(N)NCCCCCCN1CCC23c4c5ccc(O)c4OC2c2nc4ccccc4cc2CC3(O)C1C5 (stereo not shown)
Target: Mu-type opioid receptor (OPRM1, Homo sapiens, UniProt P35372)
UniProt P35372, sequence (whole entry, looked up): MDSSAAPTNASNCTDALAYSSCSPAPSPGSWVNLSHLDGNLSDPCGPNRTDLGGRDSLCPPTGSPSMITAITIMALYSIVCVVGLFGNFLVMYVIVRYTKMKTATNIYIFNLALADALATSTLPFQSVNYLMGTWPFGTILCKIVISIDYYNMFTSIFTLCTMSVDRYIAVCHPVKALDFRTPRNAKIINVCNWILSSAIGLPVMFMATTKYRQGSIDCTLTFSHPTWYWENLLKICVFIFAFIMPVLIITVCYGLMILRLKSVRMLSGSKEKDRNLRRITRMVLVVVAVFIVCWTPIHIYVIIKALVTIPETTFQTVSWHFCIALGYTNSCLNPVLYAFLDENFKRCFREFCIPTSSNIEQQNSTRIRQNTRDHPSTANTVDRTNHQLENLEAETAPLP
| tested at | specific binding |
| --- | --- |
| 10 µM | 1.43% and -0.974% and 1.33% |
| 1 nM | 113% and 95.4% and 146% |
| 10 nM | 88.8% and 106% and 133% |

Series 2 — organism: Staphylococcus aureus; strain: USA300
Compound: CCCCC[C@@H]1CC(=O)N[C@@H](C(C)C)C(=O)N[C@H](CCCNC(=N)N)C(=O)N[C@@H](CO)C(=O)NCC(=O)N(C)[C@H](Cc2ccccc2)C(=O)N[C@@H](CC(C)C)C(=O)N[C@H](CCCNC(=N)N)C(=O)N[C@@H](CC(N)=O)C(=O)N[C@H](C(C)C)C(=O)N[C@H](Cc2c[nH]c3ccccc23)C(=O)NCCCC(=O)O1
| added | MIC [µg/mL] |
| --- | --- |
| menaquinone 4 µg/mL | 32 (≈ 22 µM) |
| ubiquinone 16 µg/mL | 4 (≈ 2.75 µM) |
| ubiquinone 0 µg/mL | 4 (≈ 2.75 µM) |

Further values, each from its own experiment
| SMILES | tested on | test | system | conditions | endpoint | result |
| --- | --- | --- | --- | --- | --- | --- |
| Cc1ccc(O)c(C)c1-c1cnc2[nH]c(-c3cnc(N4CCC(CN5CCN(c6ccc7c8c(cccc68)C(=O)N7C6CCC(=O)NC6=O)CC5)CC4)nc3)cc2c1C#N (racemic) | PKMYT1 (Homo sapiens, UniProt Q99640) | binding, HTRF | – | 12.35 nM | inhibition | 64.2% and 58.4% |
| C#CCN1C(=O)C(O)(C(=O)O)Oc2cc(F)ccc21 (stereo not shown) | Arabidopsis thaliana | – | 2-week-old plants, aboveground tissue | foliar spray, 200 µg/mL, 20 days, postemergence | fresh weight | 360 mg and 364 mg and 376 mg |
| Cn1cc(-c2cccc(CN3CCC4(CC3)COc3c4ccc4c3CN([C@H]3CCC(=O)NC3=O)C4=O)c2)cn1 | Jurkat | – | – | 10 nM, 24 h, added: CD3/CD28 beads, 1:4 | IL-2 level | 150 pg/mL and 139 pg/mL and 154 pg/mL |
| Cc1ccc(O)c(C)c1-c1cnc2[nH]c(-c3cnc(N4CCC(CN5CCN(c6ccc(N7CCC(=O)NC7=O)cc6F)CC5)CC4)nc3)cc2c1C#N | HCC1569 | in-cell western, item: CDK1 phospho-Thr14 | – | 333.33 nM | pCDK1 (Thr14) level | 65.9% and 58% |

For quick reference, copied from above (further values, each from its own experiment):
| SMILES | tested on | test | system | conditions | endpoint | result |
| --- | --- | --- | --- | --- | --- | --- |
| Cc1ccc(O)c(C)c1-c1cnc2[nH]c(-c3cnc(N4CCC(CN5CCN(c6ccc(N7CCC(=O)NC7=O)cc6F)CC5)CC4)nc3)cc2c1C#N | HCC1569 | in-cell western, item: CDK1 phospho-Thr14 | – | 333.33 nM | pCDK1 (Thr14) level | 65.9% and 58% |
